# Published values pooled from the literature.
# Each numbered part is a random draw from the data of one study; scales do not carry over between parts. “And” joins repeats or separate records; there may be more than shown.
# Sequence of UniProt Q9UJQ4 (whole entry, looked up): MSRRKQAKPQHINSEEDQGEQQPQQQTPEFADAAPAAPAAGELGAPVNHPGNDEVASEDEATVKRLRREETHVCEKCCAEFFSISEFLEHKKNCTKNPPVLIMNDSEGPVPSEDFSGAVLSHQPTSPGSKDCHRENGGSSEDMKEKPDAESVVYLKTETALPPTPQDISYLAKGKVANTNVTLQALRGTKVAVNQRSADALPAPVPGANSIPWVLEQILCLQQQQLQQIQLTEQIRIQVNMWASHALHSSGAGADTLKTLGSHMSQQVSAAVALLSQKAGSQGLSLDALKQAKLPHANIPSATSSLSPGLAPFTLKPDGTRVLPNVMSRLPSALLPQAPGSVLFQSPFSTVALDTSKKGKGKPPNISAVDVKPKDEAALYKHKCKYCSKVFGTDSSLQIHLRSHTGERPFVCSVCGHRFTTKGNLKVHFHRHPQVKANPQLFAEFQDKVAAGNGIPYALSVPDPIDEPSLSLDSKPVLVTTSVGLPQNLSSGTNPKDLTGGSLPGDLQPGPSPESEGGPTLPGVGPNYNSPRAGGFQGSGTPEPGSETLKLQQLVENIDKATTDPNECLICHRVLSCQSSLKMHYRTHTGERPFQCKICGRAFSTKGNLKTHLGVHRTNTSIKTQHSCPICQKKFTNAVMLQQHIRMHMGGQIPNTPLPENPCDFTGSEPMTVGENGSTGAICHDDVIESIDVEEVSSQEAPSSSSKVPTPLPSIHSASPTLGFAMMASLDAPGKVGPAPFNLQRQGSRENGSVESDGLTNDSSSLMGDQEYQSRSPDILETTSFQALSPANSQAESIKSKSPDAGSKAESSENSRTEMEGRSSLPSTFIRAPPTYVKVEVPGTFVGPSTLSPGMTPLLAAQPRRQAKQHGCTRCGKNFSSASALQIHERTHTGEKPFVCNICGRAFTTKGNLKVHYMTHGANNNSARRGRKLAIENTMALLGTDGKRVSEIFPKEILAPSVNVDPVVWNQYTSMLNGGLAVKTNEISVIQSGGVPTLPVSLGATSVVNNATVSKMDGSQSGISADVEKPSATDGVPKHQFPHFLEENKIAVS
# Sequence of UniProt Q8NEV4 (whole entry, looked up): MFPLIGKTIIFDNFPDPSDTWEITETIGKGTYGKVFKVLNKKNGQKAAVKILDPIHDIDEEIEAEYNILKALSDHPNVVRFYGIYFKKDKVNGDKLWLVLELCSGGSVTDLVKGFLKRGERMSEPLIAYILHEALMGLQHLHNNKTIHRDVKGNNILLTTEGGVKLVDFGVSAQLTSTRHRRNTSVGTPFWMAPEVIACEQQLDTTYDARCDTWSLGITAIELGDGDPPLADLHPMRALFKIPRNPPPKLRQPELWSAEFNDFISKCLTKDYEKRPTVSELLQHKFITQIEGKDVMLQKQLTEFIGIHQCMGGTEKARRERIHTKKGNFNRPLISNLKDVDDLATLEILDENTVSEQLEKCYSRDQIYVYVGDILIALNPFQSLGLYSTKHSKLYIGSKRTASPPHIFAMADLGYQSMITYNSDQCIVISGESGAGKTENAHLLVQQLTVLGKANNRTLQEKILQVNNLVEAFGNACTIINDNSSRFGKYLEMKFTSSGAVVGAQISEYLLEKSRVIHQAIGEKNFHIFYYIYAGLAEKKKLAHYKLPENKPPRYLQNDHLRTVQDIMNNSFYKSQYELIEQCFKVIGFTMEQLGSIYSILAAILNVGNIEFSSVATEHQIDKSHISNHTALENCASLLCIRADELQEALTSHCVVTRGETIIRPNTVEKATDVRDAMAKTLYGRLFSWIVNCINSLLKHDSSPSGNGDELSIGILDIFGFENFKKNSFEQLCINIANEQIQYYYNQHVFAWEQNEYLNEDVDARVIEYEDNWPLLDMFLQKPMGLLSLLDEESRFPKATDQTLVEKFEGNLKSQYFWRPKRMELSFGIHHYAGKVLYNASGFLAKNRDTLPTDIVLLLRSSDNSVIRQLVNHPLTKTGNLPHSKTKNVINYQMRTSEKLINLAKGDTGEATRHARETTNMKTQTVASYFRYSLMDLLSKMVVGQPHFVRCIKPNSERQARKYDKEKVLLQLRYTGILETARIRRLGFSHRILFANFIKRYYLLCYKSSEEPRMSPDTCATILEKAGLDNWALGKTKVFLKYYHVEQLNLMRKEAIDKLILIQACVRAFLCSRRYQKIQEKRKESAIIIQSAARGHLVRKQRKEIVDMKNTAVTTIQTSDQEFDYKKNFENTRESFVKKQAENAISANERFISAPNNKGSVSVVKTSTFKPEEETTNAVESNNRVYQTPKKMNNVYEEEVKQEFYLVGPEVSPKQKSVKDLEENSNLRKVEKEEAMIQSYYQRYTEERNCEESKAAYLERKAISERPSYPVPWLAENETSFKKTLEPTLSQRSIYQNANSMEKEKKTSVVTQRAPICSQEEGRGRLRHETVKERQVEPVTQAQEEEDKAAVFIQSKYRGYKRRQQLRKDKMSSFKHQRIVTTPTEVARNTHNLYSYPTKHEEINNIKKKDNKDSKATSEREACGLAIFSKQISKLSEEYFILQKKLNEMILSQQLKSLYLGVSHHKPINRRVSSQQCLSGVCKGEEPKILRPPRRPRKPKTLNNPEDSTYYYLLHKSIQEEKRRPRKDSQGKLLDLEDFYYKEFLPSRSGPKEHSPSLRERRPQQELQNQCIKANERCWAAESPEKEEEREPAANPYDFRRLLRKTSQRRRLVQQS
# Sequence of UniProt O14730 (whole entry, looked up): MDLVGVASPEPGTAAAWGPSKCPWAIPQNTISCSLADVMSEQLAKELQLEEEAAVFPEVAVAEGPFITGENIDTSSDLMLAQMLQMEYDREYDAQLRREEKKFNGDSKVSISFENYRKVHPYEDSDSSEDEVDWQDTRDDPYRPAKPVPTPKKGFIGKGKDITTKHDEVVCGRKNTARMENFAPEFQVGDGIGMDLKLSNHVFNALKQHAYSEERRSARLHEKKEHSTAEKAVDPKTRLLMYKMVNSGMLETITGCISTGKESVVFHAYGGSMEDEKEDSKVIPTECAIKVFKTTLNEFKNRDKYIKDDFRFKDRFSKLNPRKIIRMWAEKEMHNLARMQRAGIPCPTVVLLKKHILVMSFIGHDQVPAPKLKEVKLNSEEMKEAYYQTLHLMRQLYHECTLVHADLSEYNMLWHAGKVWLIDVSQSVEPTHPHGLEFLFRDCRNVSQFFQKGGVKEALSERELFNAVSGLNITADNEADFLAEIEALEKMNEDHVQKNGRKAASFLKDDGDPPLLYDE

# Study 1
# SMILES: O=C1CCC(N2Cc3cc(C4CCN(Cc5ccccc5)CC4)ccc3C2=O)C(=O)N1 (stereo not drawn)
# Mode: degrader
# CRBN/Zinc finger protein Helios: CRBN/Zinc finger protein Helios (Homo sapiens, UniProt Q96SW2+Q9UKS7)
# Sequence of UniProt Q96SW2 (whole entry, looked up): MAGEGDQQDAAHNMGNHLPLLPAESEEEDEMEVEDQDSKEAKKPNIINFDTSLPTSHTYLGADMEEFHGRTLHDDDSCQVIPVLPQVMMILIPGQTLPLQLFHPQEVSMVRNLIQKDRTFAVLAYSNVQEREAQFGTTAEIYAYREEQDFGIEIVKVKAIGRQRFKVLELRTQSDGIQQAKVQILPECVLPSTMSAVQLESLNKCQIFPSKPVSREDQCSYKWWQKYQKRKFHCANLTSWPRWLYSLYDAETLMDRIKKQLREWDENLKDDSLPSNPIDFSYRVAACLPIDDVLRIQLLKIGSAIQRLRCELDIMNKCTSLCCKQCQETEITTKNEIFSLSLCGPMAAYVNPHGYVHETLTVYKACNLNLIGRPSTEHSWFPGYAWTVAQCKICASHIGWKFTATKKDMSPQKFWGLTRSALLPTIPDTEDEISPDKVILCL
# Sequence of UniProt Q9UKS7 (whole entry, looked up): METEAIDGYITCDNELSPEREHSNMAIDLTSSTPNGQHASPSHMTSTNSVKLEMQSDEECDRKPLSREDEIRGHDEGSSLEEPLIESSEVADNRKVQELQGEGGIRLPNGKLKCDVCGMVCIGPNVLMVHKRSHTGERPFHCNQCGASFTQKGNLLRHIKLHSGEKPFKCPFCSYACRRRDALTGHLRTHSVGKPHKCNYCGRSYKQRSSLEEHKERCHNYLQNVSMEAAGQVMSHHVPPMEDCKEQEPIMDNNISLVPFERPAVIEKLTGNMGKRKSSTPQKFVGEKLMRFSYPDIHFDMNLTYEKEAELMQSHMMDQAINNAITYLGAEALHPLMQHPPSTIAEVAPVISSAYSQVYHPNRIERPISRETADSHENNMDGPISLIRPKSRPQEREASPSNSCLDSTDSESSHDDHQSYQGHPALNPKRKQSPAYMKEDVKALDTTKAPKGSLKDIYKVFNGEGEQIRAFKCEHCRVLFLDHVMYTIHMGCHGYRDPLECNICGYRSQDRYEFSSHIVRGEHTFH
target,method,cell line,tested at,time,remaining protein
CRBN/Zinc finger protein Helios,flow cytometry,primary human regulatory T cells,5.08e-05 µM,3 h,101%
CRBN/Zinc finger protein Helios,flow cytometry,primary human regulatory T cells,0.0004572 µM,3 h,104%
"CSNK1A1 (Homo sapiens, UniProt P48729)",HiBiT,HEK293,0.0005081 µM,6 h,102%
"Sal-like protein 4 (SALL4, Homo sapiens, UniProt Q9UJQ4)",HiBiT,HEK293,3.333 µM,,48.9% and 46.1%

# Study 2
# Target: LIM domain kinase 1 (LIMK1, Homo sapiens, UniProt P53667)
# Sequence of UniProt P53667 (whole entry, looked up): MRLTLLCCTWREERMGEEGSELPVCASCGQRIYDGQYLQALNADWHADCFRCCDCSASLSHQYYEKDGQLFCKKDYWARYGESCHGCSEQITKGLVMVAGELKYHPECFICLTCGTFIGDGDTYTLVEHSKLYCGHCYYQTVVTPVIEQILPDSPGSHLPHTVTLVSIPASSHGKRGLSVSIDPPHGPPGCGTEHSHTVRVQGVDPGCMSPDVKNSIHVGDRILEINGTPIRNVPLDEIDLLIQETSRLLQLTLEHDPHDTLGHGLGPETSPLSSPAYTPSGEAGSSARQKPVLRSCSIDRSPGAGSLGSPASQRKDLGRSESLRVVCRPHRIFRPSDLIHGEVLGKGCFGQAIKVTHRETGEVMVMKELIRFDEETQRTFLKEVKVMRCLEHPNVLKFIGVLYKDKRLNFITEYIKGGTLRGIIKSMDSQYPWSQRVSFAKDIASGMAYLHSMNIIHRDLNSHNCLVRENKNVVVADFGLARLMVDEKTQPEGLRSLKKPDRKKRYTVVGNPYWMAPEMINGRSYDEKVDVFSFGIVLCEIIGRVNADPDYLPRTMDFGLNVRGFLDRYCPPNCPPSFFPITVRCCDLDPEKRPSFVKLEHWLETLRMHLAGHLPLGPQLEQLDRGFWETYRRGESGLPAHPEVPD
# Observed: enzyme activity
# Mode: inhibitor
# Tested at: 0.5 µM
# Reference: control
Structure (SMILES),remaining activity
Cc1nc(-c2ccccc2)c(-c2ccncc2)o1,95.5%
CCOC(=O)c1c(C)[nH]c(/C=C2\C(=O)Nc3ccccc32)c1C,81.3%
CN(C)c1ccc(C=C2C(=O)Nc3ccccc32)cc1,97.7%
O=C(Nc1cccc(Nc2cc(Nc3cccc(C(F)(F)F)c3)ncn2)c1)C1CC1,95.9%
O=C1NC(=O)C(c2cn(CCCO)c3ncccc23)=C1c1cnccn1,96.4%
Nc1[nH]nc2nc3ccccc3nc12,105%
Cn1sc(=O)n(Cc2ccccc2)c1=O,101%
N#CC(C#N)=C(N)/C(C#N)=C/c1ccc(O)cc1,89.9%
O=S(=O)(c1cccc2cnccc12)N1CCCNCC1,100%
COc1cc2ncnc(Nc3ccc(Oc4ccccc4)cc3)c2cc1OC,89%
Cc1ccc(NC(=O)c2ccc(CN3CCN(C)CC3)cc2)cc1Nc1nc(-c2cccnc2)cs1,98.1%
COc1cc2ncnc(Nc3ccc(F)c(Cl)c3)c2cc1OCCCN1CCOCC1,90%
CO[C@H]1C[C@@H]2CC[C@@H](C)[C@@](O)(O2)C(=O)C(=O)N2CCCC[C@H]2C(=O)O[C@H]([C@H](C)C[C@@H]2CC[C@@H](O)[C@H](OC)C2)CC(=O)[C@H](C)/C=C(\C)[C@@H](O)[C@@H](OC)C(=O)[C@H](C)C[C@H](C)/C=C/C=C/C=C/1C,89.8%
O=C(O)c1ccc2c3c1cccc3c(=O)n1c3ccccc3nc21,92.7%
COc1ccc(C(=O)Nc2sc3c(c2C(N)=O)CCCC3)cc1OC,93.2%

# Study 3
# Structure (SMILES): CS(=O)(=O)NCC[C@H](NC(=O)c1cncc2c1cnn2-c1ccc(F)cc1)c1ccnc(S(C)(=O)=O)c1
# Method: competition with immobilised ligand
# Tested at: 1 µM
target,observed,remaining binding [%]
"HIPK3 (Homo sapiens, UniProt Q9H422)",cell-free assay,100
"CAMK2D (Homo sapiens, UniProt Q13557)",cell-free assay,100
"FLT3 (Homo sapiens, UniProt P36888, K663Q)",cell-free assay,100
"Ribosomal protein S6 kinase alpha-3, C-terminal kinase domain (RPS6KA3, Homo sapiens, UniProt P51812)",cell-free assay,98
"INSRR (Homo sapiens, UniProt P14616)",cell-free assay,100
"RIPK4 (Homo sapiens, UniProt P57078)",cell-free assay,88
"RIOK3 (Homo sapiens, UniProt O14730)",cell-free assay,100
"Myosin-IIIa (MYO3A, Homo sapiens, UniProt Q8NEV4)",binding,93

# Study 4
# SMILES: C[C@H]1CC[C@H](n2c3cnccc3c3cnc(Nc4ccc5c(n4)CCN(C(=O)CO)C5)nc32)CC1
# Method: competition with immobilised ligand
# Tested at: 1 µM
target,observed,remaining binding [%]
"BMPR1B (Homo sapiens, UniProt O00238)",cell-free assay,85
"CDK14 (Homo sapiens, UniProt O94921)",binding,17
"YES1 (Homo sapiens, UniProt P07947)",cell-free assay,64
